Measurements collected from several papers.
Each numbered part is a random draw from the data of one study; scales do not carry over between parts.
UniProt P06241, sequence (whole entry, looked up): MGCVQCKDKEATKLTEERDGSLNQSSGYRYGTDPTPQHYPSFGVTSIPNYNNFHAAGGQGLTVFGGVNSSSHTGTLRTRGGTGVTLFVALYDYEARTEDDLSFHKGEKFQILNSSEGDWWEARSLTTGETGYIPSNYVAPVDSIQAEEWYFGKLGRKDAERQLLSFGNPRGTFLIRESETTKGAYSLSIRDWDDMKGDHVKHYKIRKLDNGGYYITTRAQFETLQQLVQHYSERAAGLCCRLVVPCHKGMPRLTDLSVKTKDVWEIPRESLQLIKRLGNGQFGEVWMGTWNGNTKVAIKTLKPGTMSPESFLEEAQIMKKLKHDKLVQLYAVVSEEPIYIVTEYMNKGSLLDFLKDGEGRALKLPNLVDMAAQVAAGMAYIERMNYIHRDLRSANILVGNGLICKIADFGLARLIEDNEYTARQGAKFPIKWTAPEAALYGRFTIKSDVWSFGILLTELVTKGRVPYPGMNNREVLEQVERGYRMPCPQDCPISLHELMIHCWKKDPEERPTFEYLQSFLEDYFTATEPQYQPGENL
UniProt O75582, sequence (whole entry, looked up): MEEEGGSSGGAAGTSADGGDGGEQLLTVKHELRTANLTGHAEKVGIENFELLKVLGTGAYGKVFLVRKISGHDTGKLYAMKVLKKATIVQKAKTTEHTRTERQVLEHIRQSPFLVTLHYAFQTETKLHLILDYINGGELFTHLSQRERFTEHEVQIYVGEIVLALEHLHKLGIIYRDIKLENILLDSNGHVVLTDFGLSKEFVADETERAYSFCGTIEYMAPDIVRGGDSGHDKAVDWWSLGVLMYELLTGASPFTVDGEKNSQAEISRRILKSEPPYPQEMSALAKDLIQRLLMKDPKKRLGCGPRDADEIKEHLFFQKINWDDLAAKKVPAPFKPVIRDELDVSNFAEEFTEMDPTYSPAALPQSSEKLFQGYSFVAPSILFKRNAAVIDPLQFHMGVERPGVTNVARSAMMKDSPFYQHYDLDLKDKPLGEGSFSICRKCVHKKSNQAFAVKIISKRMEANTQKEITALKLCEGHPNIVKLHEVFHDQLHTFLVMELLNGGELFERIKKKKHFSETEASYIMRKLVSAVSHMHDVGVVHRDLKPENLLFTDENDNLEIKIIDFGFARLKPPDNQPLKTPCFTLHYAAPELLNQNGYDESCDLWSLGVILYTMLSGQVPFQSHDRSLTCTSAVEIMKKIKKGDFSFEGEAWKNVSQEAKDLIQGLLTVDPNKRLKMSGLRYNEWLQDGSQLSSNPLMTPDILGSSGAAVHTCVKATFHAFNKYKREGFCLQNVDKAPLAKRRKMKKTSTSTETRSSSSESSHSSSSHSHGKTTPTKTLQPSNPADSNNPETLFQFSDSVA
UniProt Q06187, sequence (whole entry, looked up): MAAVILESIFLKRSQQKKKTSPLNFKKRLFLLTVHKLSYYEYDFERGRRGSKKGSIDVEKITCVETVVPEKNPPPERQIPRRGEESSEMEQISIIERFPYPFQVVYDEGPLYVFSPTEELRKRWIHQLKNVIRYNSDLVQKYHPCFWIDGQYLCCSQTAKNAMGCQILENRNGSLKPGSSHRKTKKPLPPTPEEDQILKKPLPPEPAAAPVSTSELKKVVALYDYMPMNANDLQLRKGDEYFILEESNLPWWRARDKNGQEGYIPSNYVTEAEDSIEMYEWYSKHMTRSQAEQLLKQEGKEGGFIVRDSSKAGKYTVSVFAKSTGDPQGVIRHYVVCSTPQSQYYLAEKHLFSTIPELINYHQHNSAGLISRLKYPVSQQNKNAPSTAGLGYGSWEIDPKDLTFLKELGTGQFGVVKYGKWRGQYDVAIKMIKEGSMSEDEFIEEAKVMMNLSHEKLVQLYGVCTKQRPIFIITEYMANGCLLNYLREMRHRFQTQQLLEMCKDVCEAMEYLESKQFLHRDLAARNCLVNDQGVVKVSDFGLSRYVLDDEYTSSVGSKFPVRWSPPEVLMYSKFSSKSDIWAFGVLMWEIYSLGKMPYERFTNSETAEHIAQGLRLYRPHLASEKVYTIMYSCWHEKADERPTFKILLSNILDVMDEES
UniProt P00519, sequence (whole entry, unmodified, looked up): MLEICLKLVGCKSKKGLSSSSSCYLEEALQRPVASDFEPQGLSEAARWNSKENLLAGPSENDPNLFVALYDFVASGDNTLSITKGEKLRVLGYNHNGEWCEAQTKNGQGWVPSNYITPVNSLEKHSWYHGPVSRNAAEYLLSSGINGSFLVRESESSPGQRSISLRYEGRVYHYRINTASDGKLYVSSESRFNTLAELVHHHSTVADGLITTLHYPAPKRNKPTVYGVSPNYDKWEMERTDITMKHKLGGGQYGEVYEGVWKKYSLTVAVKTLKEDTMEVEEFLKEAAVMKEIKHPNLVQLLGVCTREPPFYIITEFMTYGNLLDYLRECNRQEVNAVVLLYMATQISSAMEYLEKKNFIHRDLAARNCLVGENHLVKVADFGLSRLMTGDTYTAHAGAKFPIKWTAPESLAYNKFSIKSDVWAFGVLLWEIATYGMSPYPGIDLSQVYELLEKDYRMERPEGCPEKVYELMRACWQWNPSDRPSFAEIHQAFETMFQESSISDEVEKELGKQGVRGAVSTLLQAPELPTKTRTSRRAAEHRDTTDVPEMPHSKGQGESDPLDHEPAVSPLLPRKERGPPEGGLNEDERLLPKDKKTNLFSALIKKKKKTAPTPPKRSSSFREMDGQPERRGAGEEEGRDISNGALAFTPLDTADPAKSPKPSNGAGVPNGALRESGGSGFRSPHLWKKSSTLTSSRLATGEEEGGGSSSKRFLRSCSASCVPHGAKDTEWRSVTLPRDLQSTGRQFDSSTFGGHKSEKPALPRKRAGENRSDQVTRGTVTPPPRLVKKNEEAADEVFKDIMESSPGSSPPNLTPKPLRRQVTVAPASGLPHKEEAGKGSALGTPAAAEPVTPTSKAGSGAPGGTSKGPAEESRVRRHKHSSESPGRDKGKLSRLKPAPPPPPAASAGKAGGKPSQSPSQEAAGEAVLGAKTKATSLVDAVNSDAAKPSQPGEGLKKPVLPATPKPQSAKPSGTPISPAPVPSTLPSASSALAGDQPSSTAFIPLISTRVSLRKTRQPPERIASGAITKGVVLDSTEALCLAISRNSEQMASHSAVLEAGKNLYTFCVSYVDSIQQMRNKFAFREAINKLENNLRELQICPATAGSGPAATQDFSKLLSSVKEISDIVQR

Block 1
Cell line: Huh-7
Concentration: 10 µM
Time: 24 h
| SMILES | viability [%] |
| --- | --- |
| CC(CN1c2ccccc2Sc2ccccc21)N(C)C (stereo not shown) | 97.2 |
| Nc1nc(N)c2nc(-c3ccccc3)c(N)nc2n1 | 75.3 |
| C[C@]12C=CC(=O)C=C1CC[C@H]1[C@@H]3C[C@@H](O)[C@](O)(C(=O)CO)[C@@]3(C)C[C@H](O)[C@@]12F | 102 |
| CC[C@@H](CO)NCCN[C@@H](CC)CO | 98.6 |
| CN(C)CCC(c1ccccc1)c1ccccn1 (stereo not shown) | 100 |
| Cc1ccnc(NS(=O)(=O)c2ccc(N)cc2)n1 | 97.1 |
| CCC(=O)OCC(=O)[C@@]1(OC(=O)CC)[C@H](C)C[C@H]2[C@H]3[C@H]([C@@H](O)C[C@@]21C)[C@@]1(C)C=CC(=O)C=C1C[C@H]3Cl | 98.8 |
| O=c1[nH]c(=O)n([C@H]2C[C@H](O)[C@@H](CO)O2)cc1F | 54 |

Block 2
SMILES: CSc1cccnc1N1CCN(Cc2nc3ccccc3[nH]2)CC1
Effect on: cell-free assay
Method: competition with immobilised ligand
Concentration: 1 µM
| target | remaining binding [%] |
| --- | --- |
| TIE1 (Homo sapiens, UniProt P35590) | 100 |
| ERBB2 (Homo sapiens, UniProt P04626) | 88 |
| Non-receptor tyrosine-protein kinase TYK2, JH2 (TYK2, Homo sapiens, UniProt P29597) | 84 |
| Ribosomal protein S6 kinase alpha-5, N-terminal kinase domain (RPS6KA5, Homo sapiens, UniProt O75582) | 100 |
| Tyrosine-protein kinase ABL1, phosphorylated (ABL1, Homo sapiens, UniProt P00519, F317I) | 74 |
| BTK (Homo sapiens, UniProt Q06187) | 79 |
| FYN (Homo sapiens, UniProt P06241) | 100 |

Block 3
Cell line: mouse MPNST tumor cells
Method: high-content immunofluorescence imaging
Item: nuclear SOX9
Concentration: 10 µM
Time: 12 h
Setting: mean of 2 replicates
Baseline: DMSO control
Reading: higher = more nuclear SOX9
| Structure (SMILES) | nuclear SOX9 intensity |
| --- | --- |
| CC(C)(C)C(=O)Oc1ccc(S(=O)(=O)Nc2ccccc2C(=O)NCC(=O)O)cc1 | 95.1 % of DMSO |
| CN(C)CCC(c1ccc(Br)cc1)c1ccccn1 (stereo not shown) | 111 % of DMSO |
| c1ccc(-c2cnn3cc(-c4ccc(OCCN5CCOCC5)cc4)cnc23)cc1 | 127 % of DMSO |
| CN1CCCN=C1COC(=O)C(O)(c1ccccc1)C1CCCCC1 (stereo not shown) | 96.8 % of DMSO |
| O=C(NNC(=O)c1ccc(CNS(=O)(=O)c2ccc(F)c(Cl)c2)cc1)c1ccccc1 | 99.5 % of DMSO |
| NCCCC[C@H](N[C@@H](CCc1ccccc1)C(=O)O)C(=O)N1CCC[C@H]1C(=O)O | 100 % of DMSO |
| COc1ccc(C(Cl)=C(c2ccc(OC)cc2)c2ccc(OC)cc2)cc1 | 112 % of DMSO |

Block 4
Target: TGF-beta receptor type-2 (TGFBR2, Homo sapiens, UniProt P37173)
UniProt P37173, sequence (whole entry, looked up): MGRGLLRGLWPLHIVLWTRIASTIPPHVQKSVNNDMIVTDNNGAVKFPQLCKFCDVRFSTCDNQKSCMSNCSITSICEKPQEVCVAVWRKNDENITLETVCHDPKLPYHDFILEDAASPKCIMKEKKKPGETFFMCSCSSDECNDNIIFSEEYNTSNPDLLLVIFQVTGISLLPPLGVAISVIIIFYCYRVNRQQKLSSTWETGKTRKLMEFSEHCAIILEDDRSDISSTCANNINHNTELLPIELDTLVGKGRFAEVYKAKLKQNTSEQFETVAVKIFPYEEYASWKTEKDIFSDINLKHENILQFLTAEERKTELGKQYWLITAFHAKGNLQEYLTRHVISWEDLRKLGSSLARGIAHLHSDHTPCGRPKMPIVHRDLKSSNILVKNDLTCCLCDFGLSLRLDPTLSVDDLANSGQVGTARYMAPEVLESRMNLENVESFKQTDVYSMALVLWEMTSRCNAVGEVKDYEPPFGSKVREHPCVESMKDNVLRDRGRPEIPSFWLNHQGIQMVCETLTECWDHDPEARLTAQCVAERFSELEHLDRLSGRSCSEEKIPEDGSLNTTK
Effect on: enzyme activity
Mode: inhibitor
Concentration: 0.5 µM
Baseline: control
| Structure (SMILES) | remaining activity [%] |
| --- | --- |
| Nc1ccc2ncnc(NCCc3ccc(Oc4ccccc4)cc3)c2c1 | 110 |
| CO[C@H]1C[C@@H]2CC[C@@H](C)[C@@](O)(O2)C(=O)C(=O)N2CCCC[C@H]2C(=O)O[C@H]([C@H](C)C[C@@H]2CC[C@@H](O)[C@H](OC)C2)CC(=O)[C@H](C)/C=C(\C)[C@@H](O)[C@@H](OC)C(=O)[C@H](C)C[C@H](C)/C=C/C=C/C=C/1C | 136 |
| Cc1cccc(-c2[nH]c(C(C)(C)C)nc2-c2ccc3c(c2)OCO3)n1 | 105 |
| O=C(O)c1ccc2c3c1cccc3c(=O)n1c3ccccc3nc21 | 133 |
| COc1ccc(C(=O)Nc2sc3c(c2C(N)=O)CCCC3)cc1OC | 134 |
| O=C(Nc1cccc(Nc2cc(Nc3cccc(C(F)(F)F)c3)ncn2)c1)C1CC1 | 105 |
| CN(C)c1ccc(C=C2C(=O)Nc3ccccc32)cc1 | 124 |
| COc1cc2nccc(Oc3ccc(NC(=S)NC(=O)c4ccccc4C)cc3)c2cc1OC | 96.7 |
| COc1ccc(CNC(=O)Nc2ncc([N+](=O)[O-])s2)cc1 | 117 |
| CC(C)[C@H](CO)Nc1nc(Nc2cc(N)cc(Cl)c2)c2ncn(C(C)C)c2n1 | 93.5 |
| Nc1[nH]nc2nc3ccccc3nc12 | 82.4 |
| CCOC(=O)c1c(C)[nH]c(/C=C2\C(=O)Nc3ccccc32)c1C | 101 |
| COc1ccc(OC)c2c(=S)c3ccccc3[nH]c12 | 109 |
| C#Cc1cccc(Nc2ncnc3cc(OCCOC)c(OCCOC)cc23)c1 | 91.8 |
| COc1cc2ncnc(Nc3ccc(Oc4ccccc4)cc3)c2cc1OC | 137 |

For quick reference, copied from above (block 3):
| Structure (SMILES) | nuclear SOX9 intensity |
| --- | --- |
| CN(C)CCC(c1ccc(Br)cc1)c1ccccn1 (stereo not shown) | 111 % of DMSO |
| c1ccc(-c2cnn3cc(-c4ccc(OCCN5CCOCC5)cc4)cnc23)cc1 | 127 % of DMSO |
| CN1CCCN=C1COC(=O)C(O)(c1ccccc1)C1CCCCC1 (stereo not shown) | 96.8 % of DMSO |
| O=C(NNC(=O)c1ccc(CNS(=O)(=O)c2ccc(F)c(Cl)c2)cc1)c1ccccc1 | 99.5 % of DMSO |
| NCCCC[C@H](N[C@@H](CCc1ccccc1)C(=O)O)C(=O)N1CCC[C@H]1C(=O)O | 100 % of DMSO |
